Published values of several laboratories.
Every numbered part comes from another study and shows a few of its results, in no order. Changes are numbered by the printed parent chain.

Study 1
Target: OGT, full length, His-tagged (human)
Method: phage display, sequencing
Sample: in vitro
Concentration: 1 µg OGT
Notes: single substitutions, 15-mer displayed peptide, unchanged parent 16.7
Baseline: input library
Direction: higher = stronger binding
Quantity: fold enrichment
Starting sequence: peptide; NSEYMPQYQIIFAHQ
NSEYMPQYQIIFNHQ [A13N]: 32.9 fold
NSEYMPQYQTIFAHQ [I10T]: 0.467 fold
NSEYMPQYGIIFAHQ [Q9G]: 1.04 fold
NSEYMPQYQIIFWHQ [A13W]: 7.28 fold
NSEYMPQYQIIFKHQ [A13K]: 25.6 fold
NSEYFPQYQIIFAHQ [M5F]: 10.2 fold
NSEYMPQYEIIFAHQ [Q9E]: 6.21 fold
NSENMPQYQIIFAHQ [Y4N]: 0.695 fold
NSEYMFQYQIIFAHQ [P6F]: 3.41 fold
NSEYMPQYQIIFAQQ [H14Q]: 14.8 fold
NSEYMRQYQIIFAHQ [P6R]: 1.77 fold

Study 2
Target: Fragile X messenger ribonucleoprotein 1, C-terminal low-complexity region (Fmr1, Mus musculus, UniProt P35922)
Method: RNA Bind-n-Seq
Molecule type: RNA
Sample: in vitro
Concentration: 200 nM
Notes: whole 134-nt RNA, ends assumed
Added: 150 mM KCl
Baseline: input library
Direction: higher = stronger binding
Quantity: log2 enrichment
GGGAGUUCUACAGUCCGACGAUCGUCCUGUGCUACACAUCGUAUGUACCGAAUCGGUUUUUGGGGUUUUUGGUUUUUGGGGAAAGUAUUAUGUUACGCCGUUCGGAUCUGCACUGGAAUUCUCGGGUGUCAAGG: -0.374
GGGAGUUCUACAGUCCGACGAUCUCCUGUGCUACACAUCGUAUGUACCGAAUCGGGGAAAAAGGGGAAAAAGGAAAAAGGGGAAAGUAUUAUGUUACGCCGUUCGGAUCUGCAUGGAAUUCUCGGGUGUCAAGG: 0.00718
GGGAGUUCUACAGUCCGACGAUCAAAAGACAACACGCACCCACACAGACACAGAGGGAAGGGGUUGGGAUGGGGACAGGGUGCACAGCAGGGCGGGGUAGGACCCCAGCCCCUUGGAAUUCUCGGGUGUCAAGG: 1.24
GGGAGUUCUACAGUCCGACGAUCCAAGUCCUGUGCUACACAUCGUAUGUACCGAAUCGGGUUUUGGGUUUUGGUUUUGGAAAGUAUUAUGUUACGCCGUUCGGAUCUGCACUUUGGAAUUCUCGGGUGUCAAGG: -0.686
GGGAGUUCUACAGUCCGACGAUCAGUCCUGUGCUACACAUCGUAUGUACCGAAUCGGGUUUGGGAAAGGGUUUUUUUGGGAAAGUAUUAUGUUACGCCGUUCGGAUCUGCACUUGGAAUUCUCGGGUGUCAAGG: 0.381
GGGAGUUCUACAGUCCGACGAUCUGGGAGGUGGAUUUUGUUUAUUUUUUUAGCUCAUUUCCAGGGGUGGGAAUUUUUUUUUCAUAUGUGUCAUGAAUAAAGUUGUUUUUGAAAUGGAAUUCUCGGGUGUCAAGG: 0.217
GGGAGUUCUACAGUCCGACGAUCCCUCAAGUCCUGUGCUACACAUCGUAUGUACCGAAUCGGAGGGGAGGAGGGGAAAGUAUUAUGUUACGCCGUUCGGAUCUGCACUUCCAGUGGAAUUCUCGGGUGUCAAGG: 0.448
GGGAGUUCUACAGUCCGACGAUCUCCUCAAGUCCUGUGCUACACAUCGUAUGUACCGAAUCGGAGGGGAGGAGGAAAGUAUUAUGUUACGCCGUUCGGAUCUGCACUUCCAGCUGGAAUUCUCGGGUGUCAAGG: -0.45
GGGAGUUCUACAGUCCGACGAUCGCAGGAAGUAAAAACAAAUGGAAAUGCUUCGGAUAGUGGCAGGGGUGGGGGUUGCUAAGGAAAGGGUGGGAUGGGAGUGGGUAAAGAGUUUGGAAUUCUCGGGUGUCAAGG: 0.286
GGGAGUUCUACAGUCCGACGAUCAUGGAUGACCCCUCUGUGGGCCCCAAGAUCCCCCAGGCUUUGGAGAAGAUCCUGCAGCUGAAGGAGAGCCGCCAGGAAGAGAUGAAUUCUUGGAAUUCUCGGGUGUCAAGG: -1.22
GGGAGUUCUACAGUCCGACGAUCCAAGUCCUGUGCUACACAUCGUAUGUACCGAAUCGGGGUGGGGAAAGGGGUGGGGAAAGUAUUAUGUUACGCCGUUCGGAUCUGCACUUCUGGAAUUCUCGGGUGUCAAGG: 1.34
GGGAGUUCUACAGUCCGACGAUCCAAGUCCUGUGCUACACAUCGUAUGUACCGAAUCGGUUUUUGGUUUUUUUGGAGGAAAGUAUUAUGUUACGCCGUUCGGAUCUGCACUUCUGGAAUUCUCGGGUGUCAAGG: -0.432
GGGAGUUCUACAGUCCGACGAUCUCCUGUGCUACACAUCGUAUGUACCGAAUCGGGUUUUUUUGGGUUUUUUUGGGAAAGGGAAAGUAUUAUGUUACGCCGUUCGGAUCUGCAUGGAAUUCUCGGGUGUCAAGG: 0.0776
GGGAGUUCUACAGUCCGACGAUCGCAGGAAGUAAAAACAAAUGGAAAUGCUUCGGAUAGUGGCAGGGCUGGGGGUUGCUAAGGAAAGGGUGGGAUGGGAGUGGGUAAAGAGUUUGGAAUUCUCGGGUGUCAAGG: 0.312

Study 3
Target: CREBRF, bZIP domain (human)
Method: DHFR protein complementation
Sample: yeast
Notes: single substitutions, most at no-binding floor
Baseline: wild-type JUN-FOS pair
Direction: higher = stronger binding
Quantity: binding fitness
Starting sequence: JUN, bZIP domain (human); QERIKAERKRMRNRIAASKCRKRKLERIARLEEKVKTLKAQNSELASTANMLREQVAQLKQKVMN; partner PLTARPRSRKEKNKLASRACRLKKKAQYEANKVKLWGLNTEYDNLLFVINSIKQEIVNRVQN
K39S: -1.5 natural log
M51T: -1.39 natural log
L31F: -1.61 natural log
L31E: -1.39 natural log
V56A: -1.41 natural log
E54A: -1.38 natural log
S47R: -1.38 natural log
K36D: -1.67 natural log
T48H: -1.47 natural log
L45E: -1.59 natural log
E54W: -1.53 natural log
E44W: -1.31 natural log
A57R: -1.49 natural log
V56E: -1.48 natural log
S47A: -1.25 natural log
A29L: -1.48 natural log
I28S: -1.5 natural log
K39F: -1.44 natural log
E54P: -1.5 natural log
R30S: -1.36 natural log

Study 4
Target: ABI1, truncated, D143A, DHFR fusion (Arabidopsis thaliana)
Method: DHFR PCA, deep sequencing
Sample: yeast
Notes: methotrexate growth selection, single substitutions
Added: (+)-ABA 58 µM
Baseline: wild-type fitted maximum
Direction: higher = stronger binding
Quantity: relative binding score
Starting sequence: PYL1, truncated, DHFR fusion (Arabidopsis thaliana); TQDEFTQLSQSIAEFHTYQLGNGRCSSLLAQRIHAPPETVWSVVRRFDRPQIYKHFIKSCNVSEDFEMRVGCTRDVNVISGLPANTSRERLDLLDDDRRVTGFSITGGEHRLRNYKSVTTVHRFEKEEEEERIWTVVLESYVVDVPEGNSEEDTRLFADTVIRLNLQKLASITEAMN; partner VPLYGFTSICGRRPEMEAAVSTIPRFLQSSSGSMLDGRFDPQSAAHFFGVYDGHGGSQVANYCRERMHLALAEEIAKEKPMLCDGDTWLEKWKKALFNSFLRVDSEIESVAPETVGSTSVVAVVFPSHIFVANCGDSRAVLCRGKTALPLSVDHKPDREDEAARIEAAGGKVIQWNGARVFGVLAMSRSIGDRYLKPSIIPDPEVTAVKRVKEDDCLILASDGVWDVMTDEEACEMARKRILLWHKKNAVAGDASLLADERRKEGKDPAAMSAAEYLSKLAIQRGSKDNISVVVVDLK
C25D: -3.7%
P83Y: 6.58%
S27K: 30.4%
S11Y: 73%
V137I: 69.1%
H34V: 74.5%
L93I: 104%
R45N: 22.2%
V70D: 41.1%
L91R: 0.399%
G81I: -19.1%
E139I: 68.4%
V70F: 21.7%

Study 5
Target: CCNE2, cyclin fold, Cln2 fusion (human)
Method: yeast growth competition, sequencing
Sample: yeast
Notes: weak parent motif
Baseline: not given
Direction: higher = stronger binding
Quantity: normalised enrichment score
Starting sequence: CDC6 docking peptide (human); TLKGRRLVFDNQL
TLKRRRLVFDNQL [G4R]: 1.58
TLKGRRLVMDNQL [F9M]: -0.0532
TLKGRRLVDDNQL [F9D]: -0.495
TLKGRRLTFDNQL [V8T]: 0.29
TLKGRRLVQDNQL [F9Q]: -0.18
TLKGRRLVFDNQS [L13S]: 0.721
TLKGARAVFDNQL [R5A L7A]: 0.0214
SLKGRRLVFDNQL [T1S]: 0.298
TLKGSRLVFDNQL [R5S]: -1.16
TLKGRRLHFDNQL [V8H]: 0.166
TCKGRRLVFDNQL [L2C]: 0.461
TVKGRRLVFDNQL [L2V]: 0.565
TLKGRSLVFDNQL [R6S]: -0.0908
TLKGRRLKFDNQL [V8K]: 0.257
TLKGRRLVFDWQL [N11W]: 0.978
TLKGRRLVFMNQL [D10M]: 1.83
TLKGRRLVFDNLL [Q12L]: 0.5
TKKGRRLVFDNQL [L2K]: 0.438
TLKGRRLVFRNQL [D10R]: 0.787
TLKGRCLVFDNQL [R6C]: 0.485
TWKGRRLVFDNQL [L2W]: 0.658
TLKGRRLDFDNQL [V8D]: 0.805
FLKGRRLVFDNQL [T1F]: 0.000932
TLVGRRLVFDNQL [K3V]: 0.737

Single results of other studies
PhoQ, residues 284 288 289 292 302 303 ALSMDL  fold induction (PhoP, residues 12 14 15 18 19 LHTVM (Escherichia coli, UniProt P23836); Sort-seq, refers to: YFP reporter; E. coli; PhoQ-PhoP variant library, added: 10 µM Mg2+; baseline: high Mg2+ state, higher = stronger signaling): 5.55

Some of these lines once more (study 2):
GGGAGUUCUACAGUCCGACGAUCCCUCAAGUCCUGUGCUACACAUCGUAUGUACCGAAUCGGAGGGGAGGAGGGGAAAGUAUUAUGUUACGCCGUUCGGAUCUGCACUUCCAGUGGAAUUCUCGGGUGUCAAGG: 0.448
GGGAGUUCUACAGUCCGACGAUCGUCCUGUGCUACACAUCGUAUGUACCGAAUCGGUUUUUGGGGUUUUUGGUUUUUGGGGAAAGUAUUAUGUUACGCCGUUCGGAUCUGCACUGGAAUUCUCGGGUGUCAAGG: -0.374
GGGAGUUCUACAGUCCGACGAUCCAAGUCCUGUGCUACACAUCGUAUGUACCGAAUCGGGGUGGGGAAAGGGGUGGGGAAAGUAUUAUGUUACGCCGUUCGGAUCUGCACUUCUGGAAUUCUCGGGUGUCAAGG: 1.34
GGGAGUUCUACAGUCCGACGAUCCAAGUCCUGUGCUACACAUCGUAUGUACCGAAUCGGGUUUUGGGUUUUGGUUUUGGAAAGUAUUAUGUUACGCCGUUCGGAUCUGCACUUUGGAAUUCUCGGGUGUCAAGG: -0.686
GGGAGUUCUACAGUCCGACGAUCAAAAGACAACACGCACCCACACAGACACAGAGGGAAGGGGUUGGGAUGGGGACAGGGUGCACAGCAGGGCGGGGUAGGACCCCAGCCCCUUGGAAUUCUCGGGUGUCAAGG: 1.24
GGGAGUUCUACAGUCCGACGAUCUCCUGUGCUACACAUCGUAUGUACCGAAUCGGGGAAAAAGGGGAAAAAGGAAAAAGGGGAAAGUAUUAUGUUACGCCGUUCGGAUCUGCAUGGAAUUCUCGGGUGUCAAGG: 0.00718
